Measured values of several laboratories.
Numbered parts are unrelated; each lists some results of a single study. Several values in a cell are separate wells, animals, samples, runs or records.
UniProt P49137, sequence (whole entry, looked up): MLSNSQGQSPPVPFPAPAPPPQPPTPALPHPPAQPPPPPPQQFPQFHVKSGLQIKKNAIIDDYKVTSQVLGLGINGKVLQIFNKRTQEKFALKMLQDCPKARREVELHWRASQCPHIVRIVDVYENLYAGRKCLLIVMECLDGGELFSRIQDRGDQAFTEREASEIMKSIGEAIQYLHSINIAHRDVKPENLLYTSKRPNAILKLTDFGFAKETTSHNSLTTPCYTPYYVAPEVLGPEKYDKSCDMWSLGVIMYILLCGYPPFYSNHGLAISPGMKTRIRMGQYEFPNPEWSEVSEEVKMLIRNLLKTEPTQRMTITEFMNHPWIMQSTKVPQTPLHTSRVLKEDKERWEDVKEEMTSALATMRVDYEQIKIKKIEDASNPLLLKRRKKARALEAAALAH
UniProt P57078, sequence (whole entry, looked up): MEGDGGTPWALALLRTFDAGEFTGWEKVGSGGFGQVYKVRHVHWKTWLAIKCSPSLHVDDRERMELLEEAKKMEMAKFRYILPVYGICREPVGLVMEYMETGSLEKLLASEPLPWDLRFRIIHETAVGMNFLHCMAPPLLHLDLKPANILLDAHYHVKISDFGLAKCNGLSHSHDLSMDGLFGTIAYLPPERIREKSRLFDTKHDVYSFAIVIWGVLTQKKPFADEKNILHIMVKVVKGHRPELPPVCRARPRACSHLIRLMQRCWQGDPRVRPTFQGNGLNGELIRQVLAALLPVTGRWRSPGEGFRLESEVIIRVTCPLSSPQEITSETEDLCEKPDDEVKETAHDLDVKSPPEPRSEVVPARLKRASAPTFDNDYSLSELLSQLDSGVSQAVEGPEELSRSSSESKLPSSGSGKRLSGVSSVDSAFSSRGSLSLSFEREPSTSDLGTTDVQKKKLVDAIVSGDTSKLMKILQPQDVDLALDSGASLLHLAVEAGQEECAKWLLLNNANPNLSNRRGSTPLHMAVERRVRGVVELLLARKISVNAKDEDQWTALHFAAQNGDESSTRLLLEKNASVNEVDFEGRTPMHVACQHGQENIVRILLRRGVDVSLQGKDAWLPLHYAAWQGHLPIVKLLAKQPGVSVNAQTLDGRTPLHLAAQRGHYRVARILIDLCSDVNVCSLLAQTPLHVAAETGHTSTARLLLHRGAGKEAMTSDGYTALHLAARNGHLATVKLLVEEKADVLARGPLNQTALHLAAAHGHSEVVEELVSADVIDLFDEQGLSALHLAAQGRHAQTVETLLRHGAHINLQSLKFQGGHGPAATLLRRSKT
UniProt P78356, sequence (whole entry, looked up): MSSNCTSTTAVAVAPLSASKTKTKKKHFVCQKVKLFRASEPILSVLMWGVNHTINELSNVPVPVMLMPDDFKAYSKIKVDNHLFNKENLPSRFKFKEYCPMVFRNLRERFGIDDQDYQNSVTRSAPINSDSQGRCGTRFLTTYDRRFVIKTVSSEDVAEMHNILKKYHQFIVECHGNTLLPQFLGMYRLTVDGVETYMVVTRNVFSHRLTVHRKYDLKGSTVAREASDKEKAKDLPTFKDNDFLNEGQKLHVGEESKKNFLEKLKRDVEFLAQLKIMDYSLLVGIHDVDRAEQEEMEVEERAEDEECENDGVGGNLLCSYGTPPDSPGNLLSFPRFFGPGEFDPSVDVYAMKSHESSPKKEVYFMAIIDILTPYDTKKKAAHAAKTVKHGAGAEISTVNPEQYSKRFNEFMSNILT
UniProt Q8TDX7, sequence (whole entry, looked up): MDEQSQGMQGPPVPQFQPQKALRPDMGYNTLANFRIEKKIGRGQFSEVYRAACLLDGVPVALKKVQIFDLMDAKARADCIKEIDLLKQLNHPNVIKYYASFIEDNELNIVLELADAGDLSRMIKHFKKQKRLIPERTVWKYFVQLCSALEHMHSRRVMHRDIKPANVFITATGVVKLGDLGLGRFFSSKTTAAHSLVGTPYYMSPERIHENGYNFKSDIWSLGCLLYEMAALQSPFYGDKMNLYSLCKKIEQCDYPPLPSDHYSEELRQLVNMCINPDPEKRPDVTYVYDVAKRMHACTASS
UniProt O75116, sequence (whole entry, looked up): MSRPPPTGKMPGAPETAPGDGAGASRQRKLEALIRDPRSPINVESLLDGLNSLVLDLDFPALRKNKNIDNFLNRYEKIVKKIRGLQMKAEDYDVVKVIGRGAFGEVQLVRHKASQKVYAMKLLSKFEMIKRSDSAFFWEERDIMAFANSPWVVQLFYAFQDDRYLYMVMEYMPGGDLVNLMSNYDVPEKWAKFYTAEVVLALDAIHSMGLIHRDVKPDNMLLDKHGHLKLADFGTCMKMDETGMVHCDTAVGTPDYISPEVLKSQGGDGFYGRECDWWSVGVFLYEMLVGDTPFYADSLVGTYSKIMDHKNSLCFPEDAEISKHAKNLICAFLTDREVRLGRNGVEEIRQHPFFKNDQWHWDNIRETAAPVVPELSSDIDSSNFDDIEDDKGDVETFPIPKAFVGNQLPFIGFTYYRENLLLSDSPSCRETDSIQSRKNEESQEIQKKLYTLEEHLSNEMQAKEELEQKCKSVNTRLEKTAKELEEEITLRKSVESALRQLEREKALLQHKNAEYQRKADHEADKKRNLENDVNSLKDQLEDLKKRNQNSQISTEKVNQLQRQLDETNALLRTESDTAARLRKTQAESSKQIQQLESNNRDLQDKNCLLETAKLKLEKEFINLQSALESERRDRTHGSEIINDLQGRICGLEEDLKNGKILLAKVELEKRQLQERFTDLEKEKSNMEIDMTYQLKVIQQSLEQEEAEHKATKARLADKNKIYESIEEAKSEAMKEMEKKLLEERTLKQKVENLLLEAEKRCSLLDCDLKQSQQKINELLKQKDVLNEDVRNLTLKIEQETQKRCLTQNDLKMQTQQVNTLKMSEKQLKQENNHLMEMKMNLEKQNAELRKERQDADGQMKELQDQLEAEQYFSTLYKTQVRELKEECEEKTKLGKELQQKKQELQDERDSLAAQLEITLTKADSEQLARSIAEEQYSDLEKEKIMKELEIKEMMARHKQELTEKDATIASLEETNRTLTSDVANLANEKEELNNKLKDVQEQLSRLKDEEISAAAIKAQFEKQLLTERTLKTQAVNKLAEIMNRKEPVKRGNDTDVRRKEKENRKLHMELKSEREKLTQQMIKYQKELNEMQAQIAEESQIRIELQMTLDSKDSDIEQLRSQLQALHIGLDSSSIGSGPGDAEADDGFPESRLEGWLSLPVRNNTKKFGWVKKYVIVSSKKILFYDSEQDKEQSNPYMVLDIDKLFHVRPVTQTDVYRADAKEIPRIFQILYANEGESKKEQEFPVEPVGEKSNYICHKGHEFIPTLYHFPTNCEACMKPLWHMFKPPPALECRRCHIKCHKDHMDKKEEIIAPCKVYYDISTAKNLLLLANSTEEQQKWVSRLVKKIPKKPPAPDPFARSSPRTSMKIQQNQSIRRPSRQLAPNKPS

Set 1
Compound: CSc1cccnc1N1CCN(Cc2nc3ccccc3[nH]2)CC1
Method: competition with immobilised ligand
Tested at: 1 µM
target | assay | remaining binding
Inhibitor of nuclear factor kappa-B kinase subunit epsilon (IKBKE, Homo sapiens, UniProt Q14164) | cell-free assay | 81%
Receptor-interacting serine/threonine-protein kinase 4 (RIPK4, Homo sapiens, UniProt P57078) | cell-free assay | 66%
Serine/threonine-protein kinase PAK 1 (PAK1, Homo sapiens, UniProt Q13153) | cell-free assay | 100%
MAP kinase-activated protein kinase 2 (MAPKAPK2, Homo sapiens, UniProt P49137) | cell-free assay | 80%
Phosphatidylinositol 5-phosphate 4-kinase type-2 beta (PIP4K2B, Homo sapiens, UniProt P78356) | cell-free assay | 100%
Tyrosine-protein kinase Blk (BLK, Homo sapiens, UniProt P51451) | cell-free assay | 96%
Myosin-IIIa (MYO3A, Homo sapiens, UniProt Q8NEV4) | binding | 100%
Platelet-derived growth factor receptor beta (PDGFRB, Homo sapiens, UniProt P09619) | cell-free assay | 100%
Receptor-type tyrosine-protein kinase FLT3 (FLT3, Homo sapiens, UniProt P36888, D835V) | cell-free assay | 84%
Rho-associated protein kinase 2 (ROCK2, Homo sapiens, UniProt O75116) | cell-free assay | 74%
Receptor-type tyrosine-protein kinase FLT3 (FLT3, Homo sapiens, UniProt P36888, D835Y) | cell-free assay | 100%
Serine/threonine-protein kinase Nek7 (NEK7, Homo sapiens, UniProt Q8TDX7) | cell-free assay | 100%
Homeodomain-interacting protein kinase 3 (HIPK3, Homo sapiens, UniProt Q9H422) | cell-free assay | 96%
Serine/threonine-protein kinase DCLK2 (DCLK2, Homo sapiens, UniProt Q8N568) | cell-free assay | 100%
Epidermal growth factor receptor (EGFR, Homo sapiens, UniProt P00533, L858R/T790M) | cell-free assay | 91%
Tyrosine-protein kinase ABL1, phosphorylated (ABL1, Homo sapiens, UniProt P00519) | cell-free assay | 78%

Set 2
Target: Serine/threonine-protein kinase MARK1 (MARK1, Homo sapiens, UniProt Q9P0L2)
UniProt Q9P0L2, sequence (whole entry, looked up): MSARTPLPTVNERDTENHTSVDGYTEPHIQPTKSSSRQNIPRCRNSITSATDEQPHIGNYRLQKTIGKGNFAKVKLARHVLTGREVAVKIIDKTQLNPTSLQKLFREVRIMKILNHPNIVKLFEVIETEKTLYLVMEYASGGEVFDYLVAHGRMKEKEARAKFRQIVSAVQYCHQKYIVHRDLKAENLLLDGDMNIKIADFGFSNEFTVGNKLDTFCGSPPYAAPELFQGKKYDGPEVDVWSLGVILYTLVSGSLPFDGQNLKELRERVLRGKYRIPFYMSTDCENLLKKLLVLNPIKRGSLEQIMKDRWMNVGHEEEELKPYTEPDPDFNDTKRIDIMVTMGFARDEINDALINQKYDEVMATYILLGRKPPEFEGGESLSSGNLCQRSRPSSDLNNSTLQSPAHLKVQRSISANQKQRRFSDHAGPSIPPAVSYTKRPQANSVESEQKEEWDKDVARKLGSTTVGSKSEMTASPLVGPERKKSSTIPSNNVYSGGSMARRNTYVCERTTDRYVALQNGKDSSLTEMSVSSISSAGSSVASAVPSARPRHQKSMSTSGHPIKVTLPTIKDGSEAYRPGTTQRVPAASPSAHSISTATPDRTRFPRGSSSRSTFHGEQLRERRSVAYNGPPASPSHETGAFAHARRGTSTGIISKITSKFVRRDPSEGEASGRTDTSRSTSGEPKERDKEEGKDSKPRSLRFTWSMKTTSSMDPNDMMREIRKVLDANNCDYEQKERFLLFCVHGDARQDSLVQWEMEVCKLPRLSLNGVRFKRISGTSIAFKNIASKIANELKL
Observed: enzyme activity
Action: inhibitor
Tested at: 0.5 µM
Baseline: control
Structure (SMILES) | remaining activity [%]
Oc1cccc(-c2nc(N3CCOCC3)c3oc4ncccc4c3n2)c1 | 97.6
O=Nc1c(-c2c(O)[nH]c3cc(Br)ccc23)[nH]c2ccccc12 | 64.2
CN(C)S(=O)(=O)c1ccc2c(c1)/C(=C/c1cc3c([nH]1)CCCC3)C(=O)N2 | 54.6
O=C1NC(=O)c2c1c1c3ccccc3[nH]c1c1[nH]c3cc(Br)ccc3c21 | 42
c1ccc(-c2n[nH]c3c2oc2ccccc23)cc1 | 98.6
CN1CCN(c2ccc3nc(-c4c(N)c5c(F)cccc5[nH]c4=O)[nH]c3c2)CC1 | 34.8
COc1cccc(-c2cc(=O)c3ccccc3o2)c1N | 96.9
c1ccc2c(-c3ccncc3)c[nH]c2c1 | 94.5
O=c1cc(N2CCOCC2)oc2c(-c3ccccc3)cccc12 | 100
Cc1cc(Nc2cc(N3CCN(C)CC3)nc(Sc3ccc(NC(=O)C4CC4)cc3)n2)[nH]n1 | 114

Set 3
Target: Ras GTPase-activating protein-binding protein 1, RRM domain (G3BP1, Homo sapiens, UniProt Q13283)
UniProt Q13283, sequence (whole entry, looked up): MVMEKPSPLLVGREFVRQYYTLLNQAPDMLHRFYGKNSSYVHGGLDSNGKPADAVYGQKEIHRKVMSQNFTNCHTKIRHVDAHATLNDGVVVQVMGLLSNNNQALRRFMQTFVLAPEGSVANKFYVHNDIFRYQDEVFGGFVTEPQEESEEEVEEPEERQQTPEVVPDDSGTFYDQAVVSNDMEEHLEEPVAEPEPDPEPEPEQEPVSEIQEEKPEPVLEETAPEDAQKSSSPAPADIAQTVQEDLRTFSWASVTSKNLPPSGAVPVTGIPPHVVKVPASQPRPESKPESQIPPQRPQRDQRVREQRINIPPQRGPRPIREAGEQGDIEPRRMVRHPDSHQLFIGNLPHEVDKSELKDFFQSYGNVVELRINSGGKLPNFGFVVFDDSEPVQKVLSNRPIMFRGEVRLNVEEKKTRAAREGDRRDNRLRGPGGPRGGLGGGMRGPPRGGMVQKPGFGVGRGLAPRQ
Method: RNA Bind-n-Seq
Form: RNA
Sample: in vitro
Tested at: 1 µM
Notes: whole 134-nt RNA, ends assumed
Together with: 150 mM KCl
Baseline: input library
Reading: higher = stronger binding
Shared flanks, not repeated: GGGAGUUCUACAGUCCGACGAUC … UGGAAUUCUCGGGUGUCAAGG
Sequence | log2 enrichment
UCAAGUCCUGUGCUACACAUCGUAUGUACCGAAUCGGGGUUGGGGUUGGUUGGGGAAAGUAUUAUGUUACGCCGUUCGGAUCUGCACUUC | 0.157
CCUCAAGUCCUGUGCUACACAUCGUAUGUACCGAAUCGGAGGUUUUUGGAGGAAAGUAUUAUGUUACGCCGUUCGGAUCUGCACUUCCAG | -0.202
AAGUCCUGUGCUACACAUCGUAUGUACCGAAUCGGGGCCCCGGCCCCGGCCCCGGGAAAGUAUUAUGUUACGCCGUUCGGAUCUGCACUU | -0.691
UGGGAGGUGGAUUUUAUUUAUUUUUUUAGCUCAUUUCCAGGGGUGGGAAUUUUUUUUUAAUAUGUGUCAUGAAUAAAGUUGUUUUUGAAA | 1.44
UCAAGUCCUGUGCUACACAUCGUAUGUACCGAAUCGGGUUGGGGUUGGUUGGGGAAAGUAUUAUGUUACGCCGUUCGGAUCUGCACUUCC | 0.252
UCCUGUGCUACACAUCGUAUGUACCGAAUCGGGAAAAAGGGAAAAAAAGGGUUUUUGGGAAAGUAUUAUGUUACGCCGUUCGGAUCUGCA | 0.0803
UUGGAAGAGACCAGUGAAAUUCGAUCUGACUUGGAGCAGUUAGACCACGAGGUUAAGGAGGCUCAGACACUGUGCGAUGAACUCUCAGUG | 0.0598
GUCCUGUGCUACACAUCGUAUGUACCGAAUCGGAAAAAGGGAAAAAGGGGAAAAAGGGAAAGUAUUAUGUUACGCCGUUCGGAUCUGCAC | 0.0225

Other studies, line by line
T1: G-quadruplex RNA, G-quadruplex (Homo sapiens); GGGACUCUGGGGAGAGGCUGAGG
Compound | tested on | assay | setting | how to read | measurement | value
CC(C)(C(=O)O)[C@H](NC(=O)Cc1cccc(I)c1)c1ccc2oc(=O)[nH]c2c1 | MEL-JUSO | Incucyte 3D growth | 30 µM, 450.52 h | higher = more growth | spheroid area | 2.66e+07 a.u. and 2.89e+07 a.u. and 8.3e+07 a.u. and 5.1e+07 a.u. and 2.86e+07 a.u. and 3.42e+07 a.u.
CC(C)(C)c1cnc(CSc2cnc(NC(=O)C3CCN(CCCCSc4cccc5c4C(=O)N(C4CCC(=O)NC4=O)C5=O)CC3)s2)o1 (centres unmarked) | HH | CCK-8 | 150 nM |  | viability | 22.9%
CC1(C)S[C@@H]2[C@H](NC(=O)Cc3ccccc3)C(=O)N2[C@H]1C(=O)O | A-375 |  | 100 µM, 60 h |  | viability | 100%
Cc1ccc2c(c1)sc(-c1ccc(N(C)C)cc1)[n+]2C | T1, G-quadruplex RNA, G-quadruplex (Homo sapiens) | fluorescence turn-on | KCl 150 mM |  | binding | binds

For quick reference, copied from above (set 2):
Structure (SMILES) | remaining activity [%]
CN(C)S(=O)(=O)c1ccc2c(c1)/C(=C/c1cc3c([nH]1)CCCC3)C(=O)N2 | 54.6
O=C1NC(=O)c2c1c1c3ccccc3[nH]c1c1[nH]c3cc(Br)ccc3c21 | 42
c1ccc(-c2n[nH]c3c2oc2ccccc23)cc1 | 98.6
CN1CCN(c2ccc3nc(-c4c(N)c5c(F)cccc5[nH]c4=O)[nH]c3c2)CC1 | 34.8
COc1cccc(-c2cc(=O)c3ccccc3o2)c1N | 96.9
c1ccc2c(-c3ccncc3)c[nH]c2c1 | 94.5
